{"data": "Measured values of several laboratories", "note": "Every numbered part comes from another study and shows a few of its results, in no order. Substitutions count along the parent as printed."}
{"data": "Sample 1", "target": "Ras GTPase-activating protein-binding protein 1, full length (G3BP1, Homo sapiens, UniProt Q13283)", "method": "RNA Bind-n-Seq", "form": "RNA", "medium": "in vitro", "concentration": "200 nM", "notes": "whole 134-nt RNA, ends assumed", "with": "150 mM LiCl", "relative to": "input library", "direction": "higher = stronger binding", "each molecule": "7-deaza-guanosine replaces G", "shared flanks, not repeated": "GGGAGUUCUACAGUCCGACGAUC … UGGAAUUCUCGGGUGUCAAGG", "sequence of UniProt Q13283 (whole entry, looked up)": "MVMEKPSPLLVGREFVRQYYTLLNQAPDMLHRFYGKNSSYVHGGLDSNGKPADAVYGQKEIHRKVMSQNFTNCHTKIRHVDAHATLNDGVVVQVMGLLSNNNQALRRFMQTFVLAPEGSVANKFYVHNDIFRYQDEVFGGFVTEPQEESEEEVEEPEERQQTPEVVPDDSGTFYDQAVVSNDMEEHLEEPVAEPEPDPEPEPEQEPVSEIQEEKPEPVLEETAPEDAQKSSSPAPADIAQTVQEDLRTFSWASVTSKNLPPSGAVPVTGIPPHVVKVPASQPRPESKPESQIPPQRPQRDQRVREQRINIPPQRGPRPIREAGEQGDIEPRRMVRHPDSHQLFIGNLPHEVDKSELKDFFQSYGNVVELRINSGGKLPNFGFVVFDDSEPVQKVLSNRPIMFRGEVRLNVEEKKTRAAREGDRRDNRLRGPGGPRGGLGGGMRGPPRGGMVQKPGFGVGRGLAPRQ"}
{"Oligonucleotide": "CUCAAGUCCUGUGCUACACAUCGUAUGUACCGAAUCGGAGGUUUUUUUGGUGGAAAGUAUUAUGUUACGCCGUUCGGAUCUGCACUUCCA", "log2 enrichment": -0.239}
{"Oligonucleotide": "AGUCCUGUGCUACACAUCGUAUGUACCGAAUCGGAAAAGGGAAAAGGGGAAAAGGGGAAAGUAUUAUGUUACGCCGUUCGGAUCUGCACU", "log2 enrichment": -0.407}
{"Oligonucleotide": "UCCUGUGCUACACAUCGUAUGUACCGAAUCGGCCCCCCGGCCCCCCGGGGCCCCCCGGGGAAAGUAUUAUGUUACGCCGUUCGGAUCUGC", "log2 enrichment": -0.101}
{"Oligonucleotide": "CAAGUCCUGUGCUACACAUCGUAUGUACCGAAUCGGAAAGGGAAAGGGGAAAGGGGAAAGUAUUAUGUUACGCCGUUCGGAUCUGCACUU", "log2 enrichment": -0.0992}
{"Oligonucleotide": "UCCUGUGCUACACAUCGUAUGUACCGAAUCGGAAAAAGGGGAAAAAGGGGAAAAAGGGGAAAGUAUUAUGUUACGCCGUUCGGAUCUGCA", "log2 enrichment": -0.161}
{"Oligonucleotide": "UCCUGUGCUACACAUCGUAUGUACCGAAUCGGGAAAAAGGGUUUUUUUGGGUUUUUGGGAAAGUAUUAUGUUACGCCGUUCGGAUCUGCA", "log2 enrichment": -2.05}
{"Oligonucleotide": "AGUCCUGUGCUACACAUCGUAUGUACCGAAUCGGUUUUUGGUUUUUGGGUUUUUGGGGAAAGUAUUAUGUUACGCCGUUCGGAUCUGCAC", "log2 enrichment": 0.185}
{"Oligonucleotide": "GUCCUGUGCUACACAUCGUAUGUACCGAAUCGGAAAAAGGGGAAAAAGGGGAAAAAGGAAAGUAUUAUGUUACGCCGUUCGGAUCUGCAC", "log2 enrichment": -0.155}
{"Oligonucleotide": "ACCAUGCAGGUGGGCAUCUUUGGGAAGUGGGGCAAGGGGGGGAUAGGGAGGGGGGUAACACUAUGGGAACAGGUGGUCCCAGGUCGUUUC", "log2 enrichment": 0.298}
{"Oligonucleotide": "UCAAGUCCUGUGCUACACAUCGUAUGUACCGAAUCGGGUUUGGGUUUGGUUUGGAAAGUAUUAUGUUACGCCGUUCGGAUCUGCACUUCC", "log2 enrichment": -0.388}
{"Oligonucleotide": "CCUGUGCUACACAUCGUAUGUACCGAAUCGGGUUUUUUGGUUUUUUGGGGUUUUUUGGGGAAAGUAUUAUGUUACGCCGUUCGGAUCUGC", "log2 enrichment": -0.346}
{"data": "Sample 2", "target": "RNA binding protein fox-1 homolog 2, RRM domain, GST-SBP tag (RBFOX2, Homo sapiens, UniProt O43251-10, residues 100-194)", "method": "RNA Bind-n-Seq", "form": "RNA", "medium": "in vitro", "concentration": "365 nM", "notes": "natural RNA segment, single round, ends assumed", "relative to": "no-protein control", "direction": "higher = stronger binding", "shared flanks, not repeated": "GGGAGUUCUACAGUCCGACGAUC … UGGAAUUCUCGGGUGCCAA", "Target sequence (chain)": "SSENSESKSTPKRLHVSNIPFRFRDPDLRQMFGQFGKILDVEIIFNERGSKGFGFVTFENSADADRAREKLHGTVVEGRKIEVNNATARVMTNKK"}
{"Oligonucleotide": "CGUUCAGUUAAGUUUUUCCCUUCAUCUGGGCACUGAAGGGAUAUGUGAAACAAUGUUAACAUUUUUGGUAGUCUUCAACCAGGGAUUGUUUCUGUUUAACUUCUUAUAGG", "RBNS enrichment (R)": 0.65}
{"Oligonucleotide": "AGUUCUGUCUGCACCUGCCCUCUAGUGACCCUGGGCCUGUCCUCUGUAGAGACUCUGGUACAGAGGGCAUGGGCACCUGCAGCAUUAUAGCUGUUCUGUCUCCUGGAGAC", "RBNS enrichment (R)": 0.476}
{"Oligonucleotide": "CAGACCUCACCUUUGACUGCCAAAAUGACAGCACCCACCACCAUGAUGAUUGUCUGCAGGGCAUCUGUGUAUAUCACAGUGGCCAGGCCCCCUGCAAGAAACAAGGCUGC", "RBNS enrichment (R)": 0.746}
{"Oligonucleotide": "UGUCUCUGUUGUGAGCUUGCUCUUUGUUUUAAAAGGUGCCAGGGGUACAUUUUUGCACUGAAACCUAAAGAUGUUUUAAAAACACUUUUCACAGAAAUAGUCCUUGUCAU", "RBNS enrichment (R)": 1.1}
{"Oligonucleotide": "UGAGUAUCCUUCUCCUGUCCUGCAACAACAUCCAUAUCCAGCCAGGUGGCCCUGUCUCAAGCACCUCUCUGGCCCUCUGGUGGCCCUUGCUUAAUAAAGAUUCUCCGAGC", "RBNS enrichment (R)": 0.567}
{"Oligonucleotide": "UACAUUUAAAACUCAGCAUUAGUGCAUUGGGAAGGAUCUUUACUGCUUUGUGCUUGGCAUGUCGUUAUUUUCCAUUUGACAUUAGGGCCUUUCCAAAUGAAUGUGAGGAG", "RBNS enrichment (R)": 1.38}
{"Oligonucleotide": "UGACAAAUGUUAAGUGUAAUAAUAGAAAAGUAGAGCAAAGAGCCAUUCAGCUUCAGUCUUUACAUACCAUGAAUAAAACAUUAAAACAUCAUAUGGAGAAGUUUACAUGG", "RBNS enrichment (R)": 0.243}
{"Oligonucleotide": "ACAUGCUGCAUCUCCAGAGAUGUGCCAAGCCAAGGAGAAUGCUAGAAGCAGAGUAAAGCUUACCCCCCAAACUGUGGUCCAGCUGGACCCCUUCUUUAAUUCUUGCCUAA", "RBNS enrichment (R)": 0.423}
{"Oligonucleotide": "CAAAGGACCAGCUCCACACUGCCCCCUGCAGUUGAAUAGUGGACAGUAGCUGGUGUGACUGAACAGCAAUGGGGUGGUUGGUACUCAAUGCCUAGGUGAGCCAGUGGUUC", "RBNS enrichment (R)": 0.329}
{"Oligonucleotide": "ACAAUUUUUUAAUGUGUUCUGUGGCCGUUUUACUGACAGUAACUGCCAUUUCGUGUCUGUGGUAACAAAGUGACUUGUAAAAUGGUGGAUGUUUCCCUCACUGUGUUCUC", "RBNS enrichment (R)": 0.521}
{"Oligonucleotide": "UUUCAAUUGUAGAAUUUGGAAUCUGGAAUACAGAAUUGGGAAGAAGAACAGAGAUGACAAAAGACCACUUGAAGAGAGGUUCCUAAUACUAGACAGAUGGAGAGUGGCUU", "RBNS enrichment (R)": 0.614}
{"Oligonucleotide": "CGGUCUUAUCUCCCUCGUGUGUUGAACUUGCUGUCCGUCCAUGCACCCUACGAAGGCCAUGCUGUGCAAACGUGCUCAGGAUCUCAGUAACGGGCCAACCCCCAACUACA", "RBNS enrichment (R)": 0.912}
{"data": "Sample 3", "target": "Interferon regulatory factor 3, full length, phosphomimetic (IRF3, Homo sapiens, UniProt Q14653, residues 1-427, S386D/S396D/S398D/S402D/T404D/S405D)", "method": "protein-binding microarray", "form": "double-stranded DNA, one strand shown", "medium": "in vitro", "concentration": "2540 nM top", "notes": "60-bp whole probe", "with": "salmon DNA 0.4 mg/ml", "relative to": "random background probes", "direction": "higher = stronger binding", "shared flanks, not repeated": "GCCTAGCAC … GTCTTGATTCGCTTGACGCTGCTG", "sequence of UniProt Q14653 (whole entry, unmodified, looked up)": "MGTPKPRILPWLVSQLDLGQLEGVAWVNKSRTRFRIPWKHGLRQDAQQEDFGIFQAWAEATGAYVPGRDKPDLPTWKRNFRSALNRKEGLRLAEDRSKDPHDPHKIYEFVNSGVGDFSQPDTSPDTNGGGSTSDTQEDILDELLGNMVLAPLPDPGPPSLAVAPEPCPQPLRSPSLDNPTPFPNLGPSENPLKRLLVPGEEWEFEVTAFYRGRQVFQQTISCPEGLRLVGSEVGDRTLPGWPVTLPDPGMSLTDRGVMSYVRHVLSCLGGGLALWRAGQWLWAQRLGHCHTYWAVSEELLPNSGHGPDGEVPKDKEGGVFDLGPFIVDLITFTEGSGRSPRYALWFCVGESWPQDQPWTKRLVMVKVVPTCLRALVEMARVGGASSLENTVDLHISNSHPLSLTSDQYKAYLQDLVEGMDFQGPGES"}
{"Oligonucleotide": "TTAGAGTCCAGTTTCGATTAGTGCTAG", "fitted relative affinity": "3.56 z-score"}
{"Oligonucleotide": "AGTGTTTGCCCTATTTAAGAGTGCTAG", "fitted relative affinity": "1.25 z-score"}
{"Oligonucleotide": "GACGGTATCGACTATCGGAACGTGCTA", "fitted relative affinity": "1 z-score"}
{"Oligonucleotide": "TTAGGACTGGGTCTCGGTTAGTGCTAG", "fitted relative affinity": "-0.611 z-score"}
{"Oligonucleotide": "TTAGATTTCGGGTATCGATGAGTGCTA", "fitted relative affinity": "1.24 z-score"}
{"Oligonucleotide": "GACGGACTGGGGTATCGGGCCGTGCTA", "fitted relative affinity": "-0.901 z-score"}
{"Oligonucleotide": "GCCGGTCTCGGTCTCGGGACGTGCTAG", "fitted relative affinity": "2.2 z-score"}
{"Oligonucleotide": "TCACATGTCTGTGTCACACTGTGCTAG", "fitted relative affinity": "0.613 z-score"}
{"Oligonucleotide": "GTGTTTCTCAAATGTTTTGTTGTGCTA", "fitted relative affinity": "1.13 z-score"}
{"Oligonucleotide": "TCAGTTTTTGCTTTCCTACTGTGCTAG", "fitted relative affinity": "3.26 z-score"}
{"Oligonucleotide": "CTGCCTGTCCATTCCTTCCAGTGCTAG", "fitted relative affinity": "0.658 z-score"}
{"Oligonucleotide": "TCACTTCTGGGCTGTTTGACTGTGCTA", "fitted relative affinity": "0.656 z-score"}
{"Oligonucleotide": "CTCTGCTTGCGTCTGGGTGTGTGCTAG", "fitted relative affinity": "-0.818 z-score"}
{"Oligonucleotide": "TTAGGTTCCGGTTTCGTTTAGTGCTAG", "fitted relative affinity": "6.77 z-score"}
{"Oligonucleotide": "GACGATATCGGGTTTCCAGACGTGCTA", "fitted relative affinity": "1.8 z-score"}
{"Oligonucleotide": "TCATCTTTTATTTTTTTACTGTGCTAG", "fitted relative affinity": "1.28 z-score"}
{"Oligonucleotide": "TTAGAACCGAGTTTCGATTAGTGCTAG", "fitted relative affinity": "2.58 z-score"}
{"Oligonucleotide": "ATATATGTATATATGTGTATGTGCTAG", "fitted relative affinity": "0.588 z-score"}
{"Oligonucleotide": "GACGGAGTGCTTCTCCTGACGTGCTAG", "fitted relative affinity": "-0.377 z-score"}
{"Oligonucleotide": "CTCTGCTTGTATCTGGGTTCGTGCTAG", "fitted relative affinity": "-0.247 z-score"}
{"Oligonucleotide": "TTAGGGTTCGGTCTCGGTTAGTGCTAG", "fitted relative affinity": "2.01 z-score"}
{"Oligonucleotide": "TCAAATCTCCCATTATAACTGTGCTAG", "fitted relative affinity": "1.26 z-score"}
{"Oligonucleotide": "TTAGGCATCCTTATCCTTTAGTGCTAG", "fitted relative affinity": "0.655 z-score"}
{"Oligonucleotide": "GACGGTATCGGTATCGGCACGTGCTAG", "fitted relative affinity": "4.37 z-score"}
{"data": "Sample 4", "target": "CCNA2, cyclin fold, Cln2 fusion (human)", "method": "yeast growth competition, sequencing", "medium": "yeast", "notes": "strong parent motif", "relative to": "not given", "direction": "higher = stronger binding", "starting sequence": "CABLES2 docking peptide (human); ICAKRSLCAAFSV; partner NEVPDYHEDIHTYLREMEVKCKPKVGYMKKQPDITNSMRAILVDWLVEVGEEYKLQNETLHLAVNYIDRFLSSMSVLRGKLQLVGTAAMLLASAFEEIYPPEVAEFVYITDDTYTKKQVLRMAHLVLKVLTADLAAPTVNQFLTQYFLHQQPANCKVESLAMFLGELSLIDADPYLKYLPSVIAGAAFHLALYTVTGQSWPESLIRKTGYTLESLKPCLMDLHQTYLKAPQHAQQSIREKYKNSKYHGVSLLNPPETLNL"}
{"Change": "S6A", "normalised enrichment score": 1.48}
{"Change": "R5A", "normalised enrichment score": 0.191}
{"Change": "V13A", "normalised enrichment score": 2.78}
